Measurements pooled from the literature.
Cell line: RXF 393

`CCC(=C(c1ccc(Cl)cc1)c1ccc(OCCCN(C)C)cc1)c1ccc(OC)cc1` has a GI50 of 1160 nM (cell growth or viability).
`CC(=O)c1cccc(NC2C(N)C(NC(=O)N(C)C)(C(C)O)C(O)C2(O)COC(=O)c2c(C)cccc2O)c1` (centres unmarked) gave a GI50 of 64 nM (cell growth or viability, SRB).
`CC(=O)OC[C@H]1O[C@@H](Sc2sc(C(=O)c3ccc(C)cc3)c(N)c2-c2nc3ccccc3s2)[C@H](OC(C)=O)[C@@H](OC(C)=O)[C@H]1OC(C)=O` has a growth of 96.3% (SRB; 10 µM, 48 h; reference: untreated).
The growth percent of `COc1cc(CNC(=O)C[C@H](C)CCC=C(C)C)ccc1OCc1cn(-c2cccc([N+](=O)[O-])c2)nn1` is reported as 83% (SRB; 10 µM, 48 h).
The GI50 of `CC(=O)OCC1(O)C(Nc2cccc(C(C)=O)c2)C(N)C(NC(=O)N(C)C)(C(C)OC(C)=O)C1(C)O` (centres unmarked) is reported as 610 nM (cell growth or viability, SRB).
The GI50 of `CC(=C(c1ccc(O)cc1)c1ccc(Cl)cc1)c1ccc(Cl)cc1` is reported as 500 nM (cell growth or viability).
With `COc1cc(CNC(=O)C[C@H](C)CCC=C(C)C)ccc1OCc1cn(-c2cccc(Cl)c2)nn1` the growth percent was 79.9% (SRB; 10 µM, 48 h).
With `C1=[N+]2CCCC[N+]3=Cc4ccc5[n]4[Au-]23[n]2c1ccc2-c1nc2ccccc2nc1-5.F[P-](F)(F)(F)(F)F` the IC50 was 1300 nM (cell growth).
With `CC/C=C\C/C=C\C/C=C\C/C=C\C/C=C\C/C=C\CCC(=O)Nc1ccn(C2OC(CO)C(O)C2(F)F)c(=O)n1` (centres unmarked) the TGI was 15100 nM (NCI60 screen).
`CC(=O)OC[C@H]1O[C@@H](Sc2sc(C(=O)c3ccc(Br)cc3)c(N)c2-c2nc3ccccc3s2)[C@H](OC(C)=O)[C@@H](OC(C)=O)[C@H]1OC(C)=O` gave a growth of 115% (SRB; 10 µM, 48 h; reference: untreated).
For `COc1cc(CNC(=O)C[C@H](C)CCC=C(C)C)ccc1OCc1cn(-c2ccc(Br)cc2)nn1`, the growth percent was 61.8% (SRB; 10 µM, 48 h).
For `COc1ccc(C2=Nn3c(NN=C4C(=O)N(C)c5ccc(Br)cc54)nnc3SC2)cc1`, the inhibition was 12% (cell growth or viability, SRB; 10 µM).
`COc1cc(CNC(=O)C[C@H](C)CCC=C(C)C)ccc1OCc1cn(-c2ccc(C#N)cc2)nn1` has a growth percent of 49.4% (SRB; 10 µM, 48 h).
With `O=C1Nc2ccccc2/C1=N\Nc1nnc2n1N=C(c1ccc(Cl)cc1)CS2` the inhibition was 30% (cell growth or viability, SRB; 10 µM).

Excerpt of the above:
`CC(=O)c1cccc(NC2C(N)C(NC(=O)N(C)C)(C(C)O)C(O)C2(O)COC(=O)c2c(C)cccc2O)c1` (centres unmarked) gave a GI50 of 64 nM (cell growth or viability, SRB).
